Assay results gathered from unrelated publications.
Numbered parts are unrelated; each lists some results of a single study.

Set 1 — technique: RNA Bind-n-Seq; molecule type: RNA; matrix: in vitro; concentration: 200 nM; setting: whole 134-nt RNA, ends assumed; with: 150 mM LiCl; baseline: input library; direction: higher = stronger binding; library: 7-deaza-guanosine replaces G
Target: Fragile X messenger ribonucleoprotein 1, C-terminal low-complexity region (Fmr1, Mus musculus, UniProt P35922)
Constant ends, left off below: GGGAGUUCUACAGUCCGACGAUC … UGGAAUUCUCGGGUGUCAAGG
Oligonucleotide | log2 enrichment
CACAGAUAACACGCACCCACACAGACACAGAGGGAAGGGGUUGGGAUGGGGACAGGGUGCACAGCAGGGCGGGGUAGGACCCCAGCCCCU | 0.596
UCCUGUGCUACACAUCGUAUGUACCGAAUCGGGAAAAAGGGUUUUUUUGGGUUUUUGGGAAAGUAUUAUGUUACGCCGUUCGGAUCUGCA | -2.4
UGGGAGGUGGAUUUUGUUUAUUUUUUUAGCUCAUUUCCAGGGGUGGGAAUUUUUUUUUAAUAUGUGUCAUGAAUAAAGUUGUUUAUGAAA | -0.271
CUCAAGUCCUGUGCUACACAUCGUAUGUACCGAAUCGGGAAGGAAGGGAAGGGGAAAGUAUUAUGUUACGCCGUUCGGAUCUGCACUUCC | 0.236
AGUCCUGUGCUACACAUCGUAUGUACCGAAUCGGGUUUUUGGGUUUUUGGUUUUUGGAAAGUAUUAUGUUACGCCGUUCGGAUCUGCACU | -1.93
ACCAUGCAGGUGGGCAUCUUUGGGAAGUGGGGCAAGGGGGGGAUAGGGAGGGGGGUAACACUUUGGGGACAGGUGGUCCCAGGUCGUUUC | 1.49
AGGACGUGCAGAACUUCCUCUCUGACUGCACGAUUCAUGAUGGGGCCGCAGGUGUCCAUUUCAUCUACACUAGAGAGGGCAGGCAGAGUG | 0.122
GUCCUGUGCUACACAUCGUAUGUACCGAAUCGGGUUUUUGGGGUUUUUGGUUUUUGGGGAAAGUAUUAUGUUACGCCGUUCGGAUCUGCA | -1.61

Set 2 — technique: protein binding microarray; molecule type: double-stranded DNA, one strand shown; matrix: in vitro; concentration: not given; baseline: not given; direction: higher = stronger binding
Target: Histone acetyltransferase KAT6A, winged helix 2, GST fusion (KAT6A, Homo sapiens, UniProt Q92794, residues 85-181)
Setting: 8-mer, flanks averaged, mean of 2 arrays, mostly near background
Target sequence (chain): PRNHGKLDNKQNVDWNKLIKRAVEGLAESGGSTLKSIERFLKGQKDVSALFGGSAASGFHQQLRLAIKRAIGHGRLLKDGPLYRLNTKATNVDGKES
Oligonucleotide | E-score
ATCCTAGG | -0.0553
ACGGATCC | 0.0582
CGGGGGCA | 0.025
CGGCGCTA | 0.0521
AGGGAAGG | -0.123
GGATCCCA | -0.00359
AAATGTTC | -0.0457
CCCATGAG | -0.115
AAGACGGC | 0.0115
GGTCTATA | -0.227
AAGCTGTC | -0.205
ATACAACA | -0.0823

Set 3 — technique: protein-binding microarray; molecule type: double-stranded DNA, one strand shown; matrix: in vitro; concentration: 2200 nM top; setting: 60-bp whole probe; with: salmon DNA 0.4 mg/ml; baseline: random background probes; direction: higher = stronger binding; constant ends, left off below: GCCTAGCAC … GTCTTGATTCGCTTGACGCTGCTG
Target: Interferon regulatory factor 7, full length, phosphomimetic (IRF7, Homo sapiens, UniProt Q92985, residues 1-503, S471D/S472D/S475D/S476D/S477D/S483D/S484D/S487D)
UniProt Q92985, sequence (whole entry, unmodified, looked up): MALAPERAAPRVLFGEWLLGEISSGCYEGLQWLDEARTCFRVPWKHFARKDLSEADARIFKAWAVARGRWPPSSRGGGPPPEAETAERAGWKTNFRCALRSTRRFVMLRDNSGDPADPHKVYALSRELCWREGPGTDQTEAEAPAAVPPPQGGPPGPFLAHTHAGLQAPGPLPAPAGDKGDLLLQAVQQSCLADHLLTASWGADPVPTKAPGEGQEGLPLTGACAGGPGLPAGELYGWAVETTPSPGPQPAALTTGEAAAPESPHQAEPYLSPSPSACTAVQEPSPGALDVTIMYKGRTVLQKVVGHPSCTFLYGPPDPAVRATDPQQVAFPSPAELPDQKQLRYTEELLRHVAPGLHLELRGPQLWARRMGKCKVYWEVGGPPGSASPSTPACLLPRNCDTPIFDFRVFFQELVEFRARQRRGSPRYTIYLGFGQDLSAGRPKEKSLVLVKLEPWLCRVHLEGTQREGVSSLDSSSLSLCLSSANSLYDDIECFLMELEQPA
Oligonucleotide | fitted relative affinity [z-score]
TTAGGTCTCCTTATCATTTAGTGCTAG | 0.734
TTAGGTATCCTACTGCTTAAGTGCTAG | 0.401
GACGAACTGAGTCTCGAGGCGTGCTAG | -0.0924
TAAGGTCTCGGTATCGGTTAGTGCTAG | 0.816
ATGTTTTTCATTGTTTTTCAGTGCTAG | 2.23
GACCAACTGGGGTTTCGAGACGTGCTA | 0.664
GACGATTTCAGGACTGGAGACGTGCTA | 0.265
GACGATTTCGGGACTGGAGAAGTGCTA | 1.14
CACGGACTGGGGACTGGGGACGTGCTA | -0.542
TTGGGTATCGGGTATCGGTTAGTGCTA | 0.648

Single results of other studies
Molecule | target | assay | test system | setting | scale | measurement | result
PhoQ, residues 284 288 289 292 302 303 NLCILV | PhoP, residues 12 14 15 18 19 VQALL (Escherichia coli, UniProt P23836) | Sort-seq, refers to: YFP reporter | E. coli | PhoQ-PhoP variant library, with: 10 µM Mg2+ | baseline: high Mg2+ state, higher = stronger signaling | fold induction | 58

Repeated from above (set 3):
Oligonucleotide | fitted relative affinity [z-score]
GACGATTTCAGGACTGGAGACGTGCTA | 0.265
GACCAACTGGGGTTTCGAGACGTGCTA | 0.664
CACGGACTGGGGACTGGGGACGTGCTA | -0.542
TAAGGTCTCGGTATCGGTTAGTGCTAG | 0.816
